Values quoted from earlier work, collected from citations in different studies.
± marks the error that the study gave.
Sequence of UniProt P54829 (whole entry, looked up): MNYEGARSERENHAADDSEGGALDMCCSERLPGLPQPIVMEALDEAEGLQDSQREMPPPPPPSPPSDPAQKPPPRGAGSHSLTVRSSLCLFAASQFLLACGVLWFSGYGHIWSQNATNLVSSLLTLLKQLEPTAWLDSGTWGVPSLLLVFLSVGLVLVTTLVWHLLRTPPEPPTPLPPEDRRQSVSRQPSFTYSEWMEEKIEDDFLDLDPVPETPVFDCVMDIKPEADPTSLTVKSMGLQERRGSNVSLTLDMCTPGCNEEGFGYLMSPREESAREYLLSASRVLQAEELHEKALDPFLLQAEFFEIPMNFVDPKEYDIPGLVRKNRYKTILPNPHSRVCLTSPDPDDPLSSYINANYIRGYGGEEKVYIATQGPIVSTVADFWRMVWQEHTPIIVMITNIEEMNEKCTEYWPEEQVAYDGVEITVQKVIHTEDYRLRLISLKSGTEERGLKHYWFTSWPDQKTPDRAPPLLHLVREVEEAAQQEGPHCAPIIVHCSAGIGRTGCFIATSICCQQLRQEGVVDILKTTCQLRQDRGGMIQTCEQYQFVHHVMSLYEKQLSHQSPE

SMILES = CN1CC[C@]2(C)c3cc(OC(=O)Nc4ccccc4)ccc3N(C)[C@H]12; system = human, plasma; conditions = oral, dose not given, Posiphen dosed; quantity = AUC share; value = 52.6%
SMILES = Nc1nc2nc[nH]c2c(=O)[nH]1; target or system = class I riboswitch variant, Ppe; conditions = single binding equivalent; quantity = Kd; value = 351 ± 99 nM
SMILES = CCC(C(=O)c1ccc2c(c1)OCO2)N(C)C (centres unmarked); assay = locomotor activity; system = Swiss-Webster mice; conditions = intraperitoneal, no acclimation; quantity = ED50; value = 11.2 mg/kg
SMILES = O=C(O)C(F)(F)C(F)(F)C(F)(F)C(F)(F)C(F)(F)C(F)(F)C(F)(F)F; system = human; quantity = t1/2; value = 1.3 to 3.9 years
SMILES = C=C(C)[C@@H]1CCC(C)=C[C@H]1c1c(O)cc(CCCCC)cc1O; target or system = CYP2B6, human; assay = enzyme activity, inhibitor; system = human liver microsomes; conditions = 10 µM; quantity = inhibition; value = inhibited
SMILES = OCCN1CCN(CCC=C2c3ccccc3Sc3ccc(C(F)(F)F)cc32)CC1; target or system = MCF7; assay = microarray, item: ZNF165 mRNA; conditions = concentration not given; how to read = reference: DMSO; quantity = log2 fold change; value = 1.24
SMILES = CCCCCc1cc(O)c(C/C=C(\C)CCC=C(C)C)c(O)c1; target or system = CYP3A human; system = human liver microsomes; conditions = 10 µM; quantity = inhibition; value = inhibited
SMILES = COc1ccc2c(c1)Oc1cc(OP(=O)(O)O)ccc1C21OC(=O)c2ccccc21 (centres unmarked); target or system = PTPN5 (Homo sapiens, UniProt P54829); assay = substrate, fluorescence phosphatase; quantity = Km; value = 50 µM

A few entries again:
SMILES = COc1ccc2c(c1)Oc1cc(OP(=O)(O)O)ccc1C21OC(=O)c2ccccc21 (centres unmarked); target or system = PTPN5 (Homo sapiens, UniProt P54829); assay = substrate, fluorescence phosphatase; quantity = Km; value = 50 µM
